Results from different studies.
Parts stem from different laboratories: compare values within a part only. Positions count from the first letter of the parent shown.
Chain of UniProt Q9FX25 (whole entry, looked up): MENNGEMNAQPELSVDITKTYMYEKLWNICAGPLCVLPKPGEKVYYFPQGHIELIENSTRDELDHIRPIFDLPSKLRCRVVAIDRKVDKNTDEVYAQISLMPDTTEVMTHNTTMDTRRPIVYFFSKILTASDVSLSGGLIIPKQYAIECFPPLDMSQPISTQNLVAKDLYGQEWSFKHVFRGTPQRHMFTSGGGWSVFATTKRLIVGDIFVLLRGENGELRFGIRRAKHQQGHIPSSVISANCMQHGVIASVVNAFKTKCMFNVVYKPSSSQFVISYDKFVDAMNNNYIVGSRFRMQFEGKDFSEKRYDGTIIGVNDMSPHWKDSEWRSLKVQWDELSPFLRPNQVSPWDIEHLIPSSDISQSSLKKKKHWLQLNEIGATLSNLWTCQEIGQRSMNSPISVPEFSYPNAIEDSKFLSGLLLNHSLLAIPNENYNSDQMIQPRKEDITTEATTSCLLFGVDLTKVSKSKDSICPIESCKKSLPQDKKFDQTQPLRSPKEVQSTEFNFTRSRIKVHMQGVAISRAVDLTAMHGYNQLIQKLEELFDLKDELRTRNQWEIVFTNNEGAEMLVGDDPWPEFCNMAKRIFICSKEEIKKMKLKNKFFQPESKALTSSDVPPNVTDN
Chain of UniProt Q38831 (whole entry, looked up): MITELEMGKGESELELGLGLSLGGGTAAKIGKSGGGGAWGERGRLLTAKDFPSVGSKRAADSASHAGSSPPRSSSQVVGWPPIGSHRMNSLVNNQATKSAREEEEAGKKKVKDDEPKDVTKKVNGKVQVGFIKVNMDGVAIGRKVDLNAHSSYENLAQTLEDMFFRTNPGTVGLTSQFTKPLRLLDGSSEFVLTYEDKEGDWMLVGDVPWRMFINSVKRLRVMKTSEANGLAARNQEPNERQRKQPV
Chain of UniProt Q9XID4 (whole entry, looked up): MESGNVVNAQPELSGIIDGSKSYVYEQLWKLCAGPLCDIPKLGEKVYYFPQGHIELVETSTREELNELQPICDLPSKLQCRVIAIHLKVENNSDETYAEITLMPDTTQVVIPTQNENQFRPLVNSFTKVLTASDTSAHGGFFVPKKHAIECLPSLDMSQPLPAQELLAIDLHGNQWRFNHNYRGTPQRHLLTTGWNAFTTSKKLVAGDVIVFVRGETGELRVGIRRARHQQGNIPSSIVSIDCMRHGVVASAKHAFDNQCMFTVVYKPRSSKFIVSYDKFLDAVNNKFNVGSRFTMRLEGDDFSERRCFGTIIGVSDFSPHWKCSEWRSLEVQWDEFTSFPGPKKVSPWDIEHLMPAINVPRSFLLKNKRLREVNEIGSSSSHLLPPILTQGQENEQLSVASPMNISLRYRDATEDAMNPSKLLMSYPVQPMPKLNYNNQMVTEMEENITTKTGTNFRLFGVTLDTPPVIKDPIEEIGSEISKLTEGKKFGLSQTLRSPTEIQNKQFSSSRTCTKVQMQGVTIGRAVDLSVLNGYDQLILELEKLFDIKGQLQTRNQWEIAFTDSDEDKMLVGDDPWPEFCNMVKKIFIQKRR
Chain of UniProt Q38827 (whole entry, looked up): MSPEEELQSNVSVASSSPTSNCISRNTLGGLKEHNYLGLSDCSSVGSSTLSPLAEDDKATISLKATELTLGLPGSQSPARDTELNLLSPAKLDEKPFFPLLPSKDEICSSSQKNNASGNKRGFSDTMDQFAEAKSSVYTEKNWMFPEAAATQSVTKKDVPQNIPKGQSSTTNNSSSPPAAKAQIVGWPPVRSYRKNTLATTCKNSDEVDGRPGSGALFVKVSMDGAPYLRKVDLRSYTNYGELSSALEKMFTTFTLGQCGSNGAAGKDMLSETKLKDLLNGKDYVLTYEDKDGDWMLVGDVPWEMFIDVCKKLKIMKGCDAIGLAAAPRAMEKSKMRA
Chain of UniProt Q8RYC6 (whole entry, looked up): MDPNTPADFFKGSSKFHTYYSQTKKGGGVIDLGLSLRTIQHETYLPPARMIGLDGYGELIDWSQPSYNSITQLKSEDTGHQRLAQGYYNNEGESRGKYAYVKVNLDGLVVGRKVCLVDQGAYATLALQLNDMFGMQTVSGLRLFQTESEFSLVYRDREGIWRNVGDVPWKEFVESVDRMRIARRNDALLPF
Chain of UniProt Q38826 (whole entry, looked up): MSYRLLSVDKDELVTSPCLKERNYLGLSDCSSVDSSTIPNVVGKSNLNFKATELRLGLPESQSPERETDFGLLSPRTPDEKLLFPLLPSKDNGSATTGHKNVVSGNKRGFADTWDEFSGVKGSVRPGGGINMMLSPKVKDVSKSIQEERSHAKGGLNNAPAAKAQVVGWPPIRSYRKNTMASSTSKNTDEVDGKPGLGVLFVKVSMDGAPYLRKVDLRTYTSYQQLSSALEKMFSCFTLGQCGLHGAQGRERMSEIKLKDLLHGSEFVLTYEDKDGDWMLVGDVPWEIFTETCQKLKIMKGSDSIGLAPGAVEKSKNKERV
Chain of UniProt O24410 (whole entry, looked up): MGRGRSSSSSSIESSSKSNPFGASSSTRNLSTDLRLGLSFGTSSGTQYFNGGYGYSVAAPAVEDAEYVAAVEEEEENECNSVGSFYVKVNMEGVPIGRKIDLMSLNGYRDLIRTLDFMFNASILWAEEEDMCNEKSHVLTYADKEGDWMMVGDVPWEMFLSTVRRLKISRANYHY
Chain of UniProt Q9LQE8 (whole entry, looked up): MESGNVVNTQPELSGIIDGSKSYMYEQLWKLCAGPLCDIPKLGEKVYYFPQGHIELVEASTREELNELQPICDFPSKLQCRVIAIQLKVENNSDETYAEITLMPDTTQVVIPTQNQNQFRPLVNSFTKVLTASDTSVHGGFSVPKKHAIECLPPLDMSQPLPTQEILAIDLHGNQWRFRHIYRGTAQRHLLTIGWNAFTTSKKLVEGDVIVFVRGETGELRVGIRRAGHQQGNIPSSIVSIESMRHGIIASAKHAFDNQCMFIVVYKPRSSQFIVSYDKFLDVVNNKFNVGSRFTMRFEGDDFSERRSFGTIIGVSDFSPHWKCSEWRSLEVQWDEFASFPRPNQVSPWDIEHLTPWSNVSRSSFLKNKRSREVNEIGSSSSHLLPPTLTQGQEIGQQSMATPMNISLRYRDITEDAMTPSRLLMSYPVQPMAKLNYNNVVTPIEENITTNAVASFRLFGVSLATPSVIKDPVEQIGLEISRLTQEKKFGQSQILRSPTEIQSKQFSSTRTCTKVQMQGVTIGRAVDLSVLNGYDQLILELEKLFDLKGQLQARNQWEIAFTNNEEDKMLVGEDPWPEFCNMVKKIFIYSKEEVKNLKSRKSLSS

Series 1
Target: CCND1, cyclin fold, Cln2 fusion (human)
Technique: yeast growth competition, sequencing
Sample: yeast
Notes: strong parent motif
Reference: not given
Reading: higher = stronger binding
Starting sequence: viral docking peptide; KGVKRKLFAEDSS
Change | normalised enrichment score
E10D | 2.3
F8V | 0.21
G2C | 2.58
S12V | 1.46
A9G | 0.842
S13A | 1.95
A9H | 0.673
K6F | 0.064
V3R | 0.0866
E10R | 0.416
K4M | 0.546
K4P | 0.639
K6R | 1.54

Series 2
Target: TAR DNA-binding protein 43, full length, His tag (TARDBP, Homo sapiens, UniProt Q13148, residues 1-414)
Technique: RNA Bind-n-Seq
Form: RNA
Sample: in vitro
Concentration: 20 nM
Notes: 6-mer, flanks averaged, single round
Added: 150 mM KCl
Reference: input library
Reading: higher = stronger binding
Sequence | 6-mer enrichment (R)
ACGUCG | 0.86
AGAAUG | 1.07
UGCAUA | 0.658
CUCUUA | 0.556
GGUUCC | 0.802
UCAACA | 0.586
CCUAGU | 0.632
AGAAUA | 0.77

Series 3
Target: inorganic phosphate, free oxyanion
Technique: microfluidic competitive inhibition
Sample: in vitro, cell-free expressed
Concentration: not given
Notes: derived from inhibition constants, unchanged parent 615000 nM
Reading: lower = stronger binding
Starting sequence: PafA, mature enzyme, eGFP fusion (Elizabethkingia meningoseptica, UniProt Q9KJX5); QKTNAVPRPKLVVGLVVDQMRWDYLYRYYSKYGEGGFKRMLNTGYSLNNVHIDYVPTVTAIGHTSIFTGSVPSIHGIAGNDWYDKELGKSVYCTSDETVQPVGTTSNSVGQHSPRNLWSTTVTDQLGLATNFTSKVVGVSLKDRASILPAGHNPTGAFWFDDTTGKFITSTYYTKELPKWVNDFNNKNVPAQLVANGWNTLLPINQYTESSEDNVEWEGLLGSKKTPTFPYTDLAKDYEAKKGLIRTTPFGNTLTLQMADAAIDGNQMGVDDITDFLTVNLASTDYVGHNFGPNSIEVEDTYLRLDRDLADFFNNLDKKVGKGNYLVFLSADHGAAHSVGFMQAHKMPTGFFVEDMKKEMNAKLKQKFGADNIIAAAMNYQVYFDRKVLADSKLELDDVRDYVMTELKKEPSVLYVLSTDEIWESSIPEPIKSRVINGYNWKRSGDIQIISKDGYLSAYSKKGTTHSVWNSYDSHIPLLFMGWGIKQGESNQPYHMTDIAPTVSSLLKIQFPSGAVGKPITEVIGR
Change | phosphate dissociation constant [µM]
G36A | 619
L254G | 598
D385V | 631
A78G | 526
G445A | 415
N196G | 537
T130V | 556
T120G | 442
D237G | 418
R8V | 616
N437G | 548
T253V | 733
F312G | 572
V270A | 655
S490G | 539
F328V | 615
Y459G | 533
V137A | 571
L128V | 639
I485G | 645

Series 4
Sequence: B1 (IAA6)
Technique: two-hybrid
Reference: out of 4 tests
Reading: higher = firmer interaction
B1: IAA6 (Arabidopsis thaliana, UniProt Q38824); chain MAKEGLALEITELRLGLPGDNYSEISVCGSSKKKKRVLSDMMTSSALDTENENSVVSSVEDESLPVVKSQAVGWPPVCSYRRKKNNEEASKAIGYVKVSMDGVPYMRKIDLGSSNSYINLVTVLENLFGCLGIGVAKEGKKCEYIIIYEDKDRDWMLVGDVPWQMFKESCKRLRIVKRSDATGFGLQQD
partner | setting | positive tests
IAA20 (Arabidopsis thaliana, UniProt O24410) | weak activation fusion | 0
ARF14 497-605 (Arabidopsis thaliana, UniProt Q9LQE8) | – | 0
IAA32 (Arabidopsis thaliana, UniProt Q8RYC6) | – | 0
IAA9 (Arabidopsis thaliana, UniProt Q38827) | – | 1
ARF12 500-593 (Arabidopsis thaliana, UniProt Q9XID4) | – | 0
IAA13 (Arabidopsis thaliana, UniProt Q38831) | – | 0
ARF13 (Arabidopsis thaliana, UniProt Q9FX25) | – | 0
IAA8 (Arabidopsis thaliana, UniProt Q38826) | – | 1

Excerpt of the above (series 1):
Change | normalised enrichment score
E10D | 2.3
F8V | 0.21
G2C | 2.58
S12V | 1.46
A9G | 0.842
S13A | 1.95
